Assay results from different studies.
Parts stem from different laboratories: compare values within a part only.

Set 1 — technique: RNA Bind-n-Seq; form: RNA; sample: in vitro; concentration: 90 pmol; setting: 4-mer, random 30-nt RNA, single round; reference: input library; direction: higher = stronger binding; measurement: 4-mer enrichment
Target: ATP-dependent RNA helicase DDX3X, helicase core (DDX3X, Homo sapiens, UniProt O00571, residues 132-607)
Sequence of UniProt O00571 (132-607, looked up): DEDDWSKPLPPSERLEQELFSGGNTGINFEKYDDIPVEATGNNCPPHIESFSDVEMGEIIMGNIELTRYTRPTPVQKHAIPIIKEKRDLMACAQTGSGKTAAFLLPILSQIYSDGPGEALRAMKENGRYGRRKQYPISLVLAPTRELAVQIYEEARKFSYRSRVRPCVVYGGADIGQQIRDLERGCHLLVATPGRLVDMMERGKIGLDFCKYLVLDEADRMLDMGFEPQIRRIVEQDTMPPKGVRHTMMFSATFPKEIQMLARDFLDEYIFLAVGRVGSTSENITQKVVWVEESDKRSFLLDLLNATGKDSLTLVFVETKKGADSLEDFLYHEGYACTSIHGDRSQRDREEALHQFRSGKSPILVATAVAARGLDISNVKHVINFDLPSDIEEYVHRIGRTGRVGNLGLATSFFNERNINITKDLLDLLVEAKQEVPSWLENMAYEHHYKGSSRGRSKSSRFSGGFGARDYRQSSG
Added: 3 µM iPr-DMDA-PatA, 2 mM ADP, 2 mM phosphate
AAAA: 1.8 fold
ACCA: 1.31 fold
CACA: 1.15 fold
UGUC: 0.861 fold
UUCA: 0.991 fold
ACCU: 1.04 fold
AUGU: 1.01 fold
CGGG: 1.12 fold
CACC: 1.2 fold
GGGC: 0.725 fold
CUAA: 1.1 fold
UUAC: 1.01 fold
CCGU: 0.784 fold
CCGC: 0.846 fold
AGAG: 1.55 fold
GCGA: 0.961 fold

Set 2 — target: Cln2 (Saccharomyces cerevisiae); read-out: peptide binding; technique: competitive growth sequencing; form: peptide; organism: Saccharomyces cerevisiae; strain: unfused Cln2 strain; setting: peptide tiling library; direction: direction not given; measurement: enrichment score
PKNAKRNLSSEFAN: -0.671
PKRAKRKLYTSEISSP: -0.398
KPHVSDEEEEEPPFYH: 0.853
PARRRLRLSVDEVSSP: -0.425
KPKPVKPVTFSTGIKM: 1.7
DGCSPIKNWSPMRL: 0.0478
PAKRRLELGE: 0.059
KRNLLNEFDRII: 0.732
FQDSGYNELKSCSFDN: 0.207
VLVRTSACRSLFGPVD: -0.926
SSEVARHLLFQSHM: -0.745
DTERAHSTLDEDLERW: 0.206
SAVPLILPQAPSGPSY: 1.11
TARRIFQEPTEPKTKA: -0.888
GLPDFVFQQQPVESEA: 0.837
IVLICAKRSLCAAFSV: -1.09
SMTDFYHSKRRLIFSK: -0.443

Set 3 — technique: RNA Bind-n-Seq; form: RNA; sample: in vitro; concentration: 365 nM; reference: no-protein control; direction: higher = stronger binding; measurement: RBNS enrichment (R)
Target: RNA binding protein fox-1 homolog 2, RRM domain, GST-SBP tag (RBFOX2, Homo sapiens, UniProt O43251-10, residues 100-194)
Setting: natural RNA segment, single round, ends assumed
Target sequence (chain): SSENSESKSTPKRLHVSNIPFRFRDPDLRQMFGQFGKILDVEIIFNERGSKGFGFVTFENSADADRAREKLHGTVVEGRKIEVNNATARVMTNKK
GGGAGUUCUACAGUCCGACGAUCAAUCUGUUACUCAGUGUUAGUCUUCAUUUUUCUGUGUUGGAAACCUGCGUCAUGUAAAUAUCUGCAAAUCAUGACAGUCUAAAGUGCAAACCAUUUUCAGAGACUUUGGGUGGAAUUCUCGGGUGCCAA: 0.412
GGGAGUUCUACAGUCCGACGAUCGGGCCCCUGGUGCCACUGCGUAGUGUUCACUAACACCCCGCCUCACCAGGCAGGAGCCCCGACCCCCCAGCAGCGGUGCCACUCUUCCAAGCCUCUUGGUGCACAAUAAAUGGAAUUCUCGGGUGCCAA: 0.403
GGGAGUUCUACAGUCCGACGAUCUGCCACUUGUAAAUGUUUUGCAGCCAGCACCUGAGGACUUCUUAUACAGUCAUAAAGCCACCUAGAGCGAUUUGUUGUUGAGCAACGCCGCCCCUUCCCUCCAGGAUCAGUGGAAUUCUCGGGUGCCAA: 0.557
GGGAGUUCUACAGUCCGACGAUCUAGGCUAAUAAUAAUAAUAAAAAACCAAAAGGCAUCUUGUUGUGAUUUCUAUGCCAACAUCCUGCCUACCUACAUAUCCCUAUCUUGGCUUAACCCGUUUCUCUGGAUUUUGGAAUUCUCGGGUGCCAA: 0.251
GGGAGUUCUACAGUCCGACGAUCUGUCAAAGCCGAGAGACCAGCCUGCGUCCUAAAGUUUGCUUUAGAGAGUAGGAAUGUCGGGGUUUCCAGUUAGAAAACCUUUAUUUUUGGAAACGGAAUAAAAAUCUCUUUGGAAUUCUCGGGUGCCAA: 0.313
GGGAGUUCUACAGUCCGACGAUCCUGGACCACUGGCUCAUCAUGCAAUGAAAAGGUGAGCAGACUUAACCCCUCCGUGCCUCAGCUUUUUCCCCACAGACACCUACCUCACAGGGGCAUUGAGAAAAAAAAAAUGGAAUUCUCGGGUGCCAA: 1.16
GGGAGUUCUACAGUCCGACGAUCAGACAGCAGCACUAGCAGACGGUCUUAGAACCUUCACACUGUCUCUACCACUACAUGGAAUGACAUAAAAGCAACUUGUAGGCCAGAGGGGUGGGGUGAACCCUUCUGUGUGGAAUUCUCGGGUGCCAA: 1.43
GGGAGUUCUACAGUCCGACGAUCCUGCCUCUUUAGGAAGUGAGGGUUUCUUGUUCUCCUUUAAAAAUCAGUCUCUAGACUACGGCCAUCAGGAAUCUACCCUCGCCCACCUGACCCUGCGAGGACACGGGCACUGGAAUUCUCGGGUGCCAA: 0.397
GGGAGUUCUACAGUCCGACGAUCUUUGACCAGAAGAGGAAGCUUGGGGUUGAAUGGGGUGGCUCCAUUCUUCACCACUGGACUGCGGGAGGCGGCUGCACCAGGCCCUCAGUGGAGCGCUGCUGUGACCACUGUGGAAUUCUCGGGUGCCAA: 0.677
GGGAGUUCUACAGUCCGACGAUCCAGGGACCUGUUUCCCAAGAAGAGAGCCUGAUAUUCAAAGGGUGGGACAGCAUCUGCCCGACUUCCCGUAAAGGCAUAAAGGCACGCAGCCCAAAAGACGGGAAGAGGAGUGGAAUUCUCGGGUGCCAA: 2.38
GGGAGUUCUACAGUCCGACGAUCACAUGGUGACCCAAGAGUCUGGGCCUGCUCACCGCAAAGAGUUCACCAUGACUUGCCGGGUGGAGCGUUUCAUUGAGAUUGGCAGUGGCACUUCCAAAAAGCUGGCAAAGUGGAAUUCUCGGGUGCCAA: 0.286
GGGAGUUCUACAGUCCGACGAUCGGCUGCAGAGACCUUGCGACCAUGUGUAGAUUGCGUGGACCCCGACAAAGGGAAGGCUGCUGUGUAGCUCUGUCCACUCUGAAUACCAAGUGUGUUGGGAAUUGCAUGCCUGGAAUUCUCGGGUGCCAA: 1.62

Set 4 — technique: RNAcompete; form: RNA; sample: in vitro; concentration: 20 nM; setting: 7-mer, probes averaged, single round; reference: mean of 7-mers; direction: higher = stronger binding; measurement: 7-mer Z-score
Target: PABPC1L2, full length, GST fusion (mouse, UniProt A0ABA7IW68)
Target sequence (chain): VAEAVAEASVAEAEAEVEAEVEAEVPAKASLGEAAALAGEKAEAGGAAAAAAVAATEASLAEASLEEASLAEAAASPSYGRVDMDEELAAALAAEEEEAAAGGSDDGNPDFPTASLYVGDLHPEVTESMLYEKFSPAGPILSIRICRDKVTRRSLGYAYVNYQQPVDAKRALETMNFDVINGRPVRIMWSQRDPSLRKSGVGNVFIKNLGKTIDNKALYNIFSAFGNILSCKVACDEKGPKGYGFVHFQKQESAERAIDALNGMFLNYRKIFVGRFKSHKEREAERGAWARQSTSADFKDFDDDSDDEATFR
AAGUGCA: 0.1
CUUAGCG: -0.186
AGGGGUG: 0.419
GCAGGGU: 0.0895
AUUCGGG: 0.0243
GGCUUCG: -0.13
ACGUACA: 0.0696
GGCUUUA: 0.253
GGUUAAG: 0.111
CGAGAUA: 0.0497
AUCUCAG: -0.0573
UAACAUU: -0.188
CACGGGG: 0.115
UUCACCG: -0.349
AUGCUCG: -0.206
GCGUUGC: -0.0518
AGAAAUG: 0.657
GGUUCGG: -0.168
UGUAACA: -0.122
CAACUCC: -0.26
UCGGUUG: -0.382
CUGCCAG: -0.307
CCUAUGA: -0.186
GUGGGUA: 0.202
AAGCUCA: -0.0409

Set 5 — technique: RNA Bind-n-Seq; form: RNA; sample: in vitro; concentration: not given; setting: RNA with constant flanks, ends assumed; reference: input RNA pool; direction: higher = stronger binding; measurement: bound/input enrichment
Target: RING finger protein unkempt homolog, zinc fingers 1-6, GST-SBP tag (UNK, Homo sapiens, UniProt Q9C0B0, residues 30-357)
Sequence of UniProt Q9C0B0 (30-357, looked up): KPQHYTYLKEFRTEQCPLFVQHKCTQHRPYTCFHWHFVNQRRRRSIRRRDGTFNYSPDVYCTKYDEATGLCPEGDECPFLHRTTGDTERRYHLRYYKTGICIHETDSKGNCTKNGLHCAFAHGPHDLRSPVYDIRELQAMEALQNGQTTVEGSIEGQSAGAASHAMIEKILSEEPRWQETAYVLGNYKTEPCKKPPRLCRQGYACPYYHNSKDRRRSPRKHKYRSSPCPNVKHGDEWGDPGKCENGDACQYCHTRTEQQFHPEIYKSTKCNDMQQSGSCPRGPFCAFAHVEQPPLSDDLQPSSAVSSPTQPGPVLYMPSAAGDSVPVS
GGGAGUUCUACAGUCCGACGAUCAAUAAAGCGGUUGUGCUUCGGGGCCAUGAAUCUGAAGUUUUCAUCUGUGCCUGGAACCCUGUCCGUGAUCUCCUGGCAUCAGGGUCUGGAGACUCCACGGCAAGAAUCUGGAACCUCAGUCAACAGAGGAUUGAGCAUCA: 0.123 ratio
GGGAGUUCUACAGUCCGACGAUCGAGGAGAAGCAGCGGGAGCUGGCCCGGAAGGGCUCCCUGAAGAAUGGCAGCAUGGGCCGCCCUGUCAACCAGCAACCCAAGAAGAACAAUGUCAUGGCCCGAACAAGGCUGGUCGUCCCCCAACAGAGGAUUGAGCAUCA: 0.154 ratio
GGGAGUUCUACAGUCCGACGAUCGCCUCCCUGGGUCUAGAGAAGUUGGUAAGCCCUCCAGCCUCAGCCGCUGCUUCCAGCCCCCGCUCUUCUCCAUCUCCACAGCCCGUUUCAGAGCUUGACUUGUCCUCAGAGCCACAGCAGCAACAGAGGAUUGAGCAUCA: 0.334 ratio
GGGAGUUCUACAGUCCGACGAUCUACAGAAGGAGCACCUCUCAAACCGUGCUUCAGGCUCUGAGAAAAGGAGCACAGGGGAAAUCCGUCUUGCUUUGGAUCCAAGCAAAUGCUGUCGGAGCAAUGAACUGGGACUUUGUGUGCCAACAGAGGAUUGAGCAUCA: 0.104 ratio
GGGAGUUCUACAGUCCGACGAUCUCUUUUCCUCUGUAUUUACAUAUACUUUAUGUAUCAAGUGUGUGUGUGUAUGUGUGUGCUUUCCGCUCCAAGCAAACCUGAGUUUGGAUAAAGGGGAACUAAACUACAAAUUAUGUCUAUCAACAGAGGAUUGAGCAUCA: 0.158 ratio
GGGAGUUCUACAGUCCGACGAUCCAGCACCCCAUCAAACCAGUGGUUCAUCCAACUGCUACCCCAAGCACUGUUCCUUCCCGUCCAUUUACGCUACAGUCUGAUCACCAGCCAAAGAAAUCAUUUGAUGCUAAUGGAGCAUCUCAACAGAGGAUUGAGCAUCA: 0.376 ratio
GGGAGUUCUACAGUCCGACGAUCAAAAGAAAAGCCUCUAAAUAGGGUUUCAUGUGGUGCAGGGUUAUAAACCUGCUUUAUCUUUCCGGAUUAUUCCUAAAUGCAUCUUCUUUAUAAACUUGACUUGCUAUAUCAGCAAGAUAACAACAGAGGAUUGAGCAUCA: 0.204 ratio
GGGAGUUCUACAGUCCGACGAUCUCUAUCACUGAUGCUAAAAGUUGUGAGGGACAAAAUCCUGAGCUACUUCCAAAAACUCCUAUCCGUCCUCUGAAAACGGGGGUAUCGAAACCAAUUGUGAAGUCAACUUUAUCCCAGACACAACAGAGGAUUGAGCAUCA: 0.188 ratio
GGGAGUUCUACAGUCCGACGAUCCAGCAGCCACAGCCACUGAUGUCACAACAGUUUGCACAGCCUCCGGGAGCUACCAAUAUGACCGGUUACAUGGGGCAGACUGCCUACCAAUACCCUCCUCCUCCUCCCCCUCCUCCUCCUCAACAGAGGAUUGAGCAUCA: 0.309 ratio
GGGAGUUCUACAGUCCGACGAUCCAGCAGCCACAGCCACUGAUGUCACAGCAGUUUGCACAGCCUCCAGGAGCUACCAAUAUGACCGGCUACAUGGGGCAGACUGCUUACCAGUACCCUCCCCCUCCCCCUCCCCCUCCUCCACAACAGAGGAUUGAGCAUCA: 0.321 ratio
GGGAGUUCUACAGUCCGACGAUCUGAUCUUCUGCUCUUCCCACUUCCUCCCCUUUCUACUGCUCUCCCAUUUUCCCUUGCUGGGAGCCGCCACAUGCUCUUGCCCCCCAACCCUUGUAUAUGGGGACAGUGGGGUCAGUGCAGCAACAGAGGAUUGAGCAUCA: 0.21 ratio

Set 6 — technique: protein binding microarray; form: double-stranded DNA, one strand shown; sample: in vitro; concentration: not given; reference: not given; direction: higher = stronger binding; measurement: E-score
Target: Histone acetyltransferase KAT6A, both winged helices, GST fusion (KAT6A, Homo sapiens, UniProt Q92794, residues 1-181)
Setting: 8-mer, flanks averaged, mean of 2 arrays, mostly near background
Construct (chain): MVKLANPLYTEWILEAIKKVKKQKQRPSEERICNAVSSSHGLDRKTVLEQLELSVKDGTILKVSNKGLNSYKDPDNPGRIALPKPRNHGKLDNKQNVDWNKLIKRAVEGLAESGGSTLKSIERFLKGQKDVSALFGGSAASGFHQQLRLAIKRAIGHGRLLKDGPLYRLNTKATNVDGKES
AATTATAG: -0.0249
GGTAGGTA: -0.077
AGTATTAT: -0.302
TAGGACGA: -0.0407
CTCGGCTA: 0.192
AAGTTATA: -0.0857
ATTGGATG: -0.129
ACTTAATG: -0.0728
CCAAATCG: 0.0604
AGTAGAGA: -0.185
ACAGTCAG: 0.0341
AGGCTACT: -0.215
CCGTCGCA: 0.322
GATTGAAA: -0.0869
ATCTTGTC: -0.0223
CCGGTCTC: 0.0353
GCGGTAGC: 0.226
CTCGACGC: 0.11
CTTACAAA: -0.0909
CCGTGGGC: 0.184
ACAAATGC: -0.0772
AGCGTGTC: 0.0716
ACACTTCC: -0.036
AAATACGG: 0.0832
ATATAAAT: -0.00517

Repeated from above (set 4):
GGUUCGG: -0.168
ACGUACA: 0.0696
UAACAUU: -0.188
GCGUUGC: -0.0518
GGCUUCG: -0.13
AUGCUCG: -0.206
GGUUAAG: 0.111
AAGUGCA: 0.1
GCAGGGU: 0.0895
